Published values of several laboratories.
Numbered parts are unrelated; each lists some results of a single study. Substitutions count along the parent as printed.

Study 1 — technique: protein-binding microarray; molecule type: double-stranded DNA, one strand shown; matrix: in vitro; tested at: 2540 nM top; setting: 60-bp whole probe; added: salmon DNA 0.4 mg/ml; relative to: random background probes; direction: higher = stronger binding; shared flanks, not repeated: GCCTAGCAC … GTCTTGATTCGCTTGACGCTGCTG
Target: Interferon regulatory factor 3, full length, phosphomimetic (IRF3, Homo sapiens, UniProt Q14653, residues 1-427, S386D/S396D/S398D/S402D/T404D/S405D)
Construct (chain): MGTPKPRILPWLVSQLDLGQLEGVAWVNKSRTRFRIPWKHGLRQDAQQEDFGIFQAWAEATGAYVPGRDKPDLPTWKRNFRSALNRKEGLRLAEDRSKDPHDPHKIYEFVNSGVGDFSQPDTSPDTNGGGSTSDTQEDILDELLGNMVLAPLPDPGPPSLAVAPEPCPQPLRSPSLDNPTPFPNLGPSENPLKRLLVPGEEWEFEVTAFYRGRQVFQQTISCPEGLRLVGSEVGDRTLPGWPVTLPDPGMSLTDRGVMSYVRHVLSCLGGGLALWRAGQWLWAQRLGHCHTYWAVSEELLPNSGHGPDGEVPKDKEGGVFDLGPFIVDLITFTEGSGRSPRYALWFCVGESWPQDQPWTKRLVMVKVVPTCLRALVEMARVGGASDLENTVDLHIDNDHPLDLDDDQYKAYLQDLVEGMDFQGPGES
`CACACCCGGCTCCTCTGCCAGTGCTAG`: “fitted relative affinity” -0.0239 z-score.
`TCATTTTTTCATATATAACTGTGCTAG`: “fitted relative affinity” 1.83 z-score.
Under “fitted relative affinity”, `GACGTTTTCCTTATCCTGACGTGCTAG` is recorded as 4.72 z-score.
`TTAGAACTGAGTTTCGGTTAGTGCTAG` — result for “fitted relative affinity”: 4.25 z-score.
`GACGGACTCCTTTTCCTGACGTGCTAG`: “fitted relative affinity” 2.53 z-score.
Under “fitted relative affinity”, `TTAGATTTCAGGATCGATTAGTGCTAG` is recorded as 1.17 z-score.
Under “fitted relative affinity”, `ATAACACTCTTCTTTTGCTAAGTGCTA` is recorded as 0.857 z-score.
`TGGGACCAGCACAGACAGTCGTGCTAG` — result for “fitted relative affinity”: -0.812 z-score.

Study 2 — technique: aptamer microarray, sandwich; molecule type: DNA with 2'F-ANA; matrix: in vitro; tested at: 200 nM; added: Cy3 exosite-II aptamer, 400 nM; direction: higher = stronger binding; oligonucleotide: GGTTGGTGTGGTTGG
Target: Prothrombin, mature alpha-thrombin (F2, Homo sapiens, UniProt P00734)
Setting: whole 15-mer aptamer, many near background
`2'F-ANA at 2 5 7 9 12 14 15` — result for “mean fluorescence intensity”: 63.5 a.u.
`2'F-ANA at 4 7 8 11 14 15` — result for “mean fluorescence intensity”: 134 a.u.
`2'F-ANA at 2 5 6 7 8 13 14` — result for “mean fluorescence intensity”: 52.2 a.u.
For `2'F-ANA at 3 4 5 9 10 12 13 14 15`, “mean fluorescence intensity” read 48 a.u.
For `2'F-ANA at 3 4 5 6 7 8 9 12 14`, “mean fluorescence intensity” read 75.7 a.u.
`2'F-ANA at 1 2 7 10 12 13 14 15`: “mean fluorescence intensity” 49.3 a.u.
`2'F-ANA at 1 2 3 5 6 7 8 9 11 15`: “mean fluorescence intensity” 59.2 a.u.
Under “mean fluorescence intensity”, `2'F-ANA at 1 2 7 9 10 14 15` is recorded as 103 a.u.

Study 3 — target: CCNB3, cyclin fold, Cln2 fusion (human); technique: yeast growth competition, sequencing; matrix: yeast; setting: weak parent motif; relative to: not given; direction: higher = stronger binding
Parent: CDC6 docking peptide (human); TLKGRRLVFDNQL
For `TIKGRRLVFDNQL [L2I]`, “normalised enrichment score” read 0.184.
`TLKGRRLVCDNQL [F9C]` — result for “normalised enrichment score”: -0.133.
`TLKGRRLVFDNQA [L13A]`: “normalised enrichment score” 0.447.
`TLKGRRLVFDNGL [Q12G]`: “normalised enrichment score” 0.819.
For `TLKGRRLVVDNQL [F9V]`, “normalised enrichment score” read -0.591.
For `TLKGRRLVFDNWL [Q12W]`, “normalised enrichment score” read 0.578.
`TLKGWRLVFDNQL [R5W]` — result for “normalised enrichment score”: 1.73.
Under “normalised enrichment score”, `TLKGRRLVFDHQL [N11H]` is recorded as 0.213.
`TLKGRRLVFDNML [Q12M]` — result for “normalised enrichment score”: 0.439.
`TMKGRRLVFDNQL [L2M]`: “normalised enrichment score” 0.158.

Single results of other studies
`PhoQ, residues 284 288 289 292 302 303 QWQEDG` gave a fold induction of 20.6 (PhoP, residues 12 14 15 18 19 LHHSG (Escherichia coli, UniProt P23836); Sort-seq, refers to: YFP reporter; E. coli; PhoQ-PhoP variant library, added: 10 µM Mg2+; relative to: high Mg2+ state, higher = stronger signaling).

For quick reference, copied from above (study 1):
`TCATTTTTTCATATATAACTGTGCTAG`: “fitted relative affinity” 1.83 z-score.
Under “fitted relative affinity”, `TTAGATTTCAGGATCGATTAGTGCTAG` is recorded as 1.17 z-score.
`GACGGACTCCTTTTCCTGACGTGCTAG`: “fitted relative affinity” 2.53 z-score.
Under “fitted relative affinity”, `ATAACACTCTTCTTTTGCTAAGTGCTA` is recorded as 0.857 z-score.
